# Results of several laboratories.
# Numbered parts are unrelated; each lists some results of a single study. “And” joins repeats or separate records; there may be more than shown.
# Sequence of UniProt P35590 (whole entry, looked up): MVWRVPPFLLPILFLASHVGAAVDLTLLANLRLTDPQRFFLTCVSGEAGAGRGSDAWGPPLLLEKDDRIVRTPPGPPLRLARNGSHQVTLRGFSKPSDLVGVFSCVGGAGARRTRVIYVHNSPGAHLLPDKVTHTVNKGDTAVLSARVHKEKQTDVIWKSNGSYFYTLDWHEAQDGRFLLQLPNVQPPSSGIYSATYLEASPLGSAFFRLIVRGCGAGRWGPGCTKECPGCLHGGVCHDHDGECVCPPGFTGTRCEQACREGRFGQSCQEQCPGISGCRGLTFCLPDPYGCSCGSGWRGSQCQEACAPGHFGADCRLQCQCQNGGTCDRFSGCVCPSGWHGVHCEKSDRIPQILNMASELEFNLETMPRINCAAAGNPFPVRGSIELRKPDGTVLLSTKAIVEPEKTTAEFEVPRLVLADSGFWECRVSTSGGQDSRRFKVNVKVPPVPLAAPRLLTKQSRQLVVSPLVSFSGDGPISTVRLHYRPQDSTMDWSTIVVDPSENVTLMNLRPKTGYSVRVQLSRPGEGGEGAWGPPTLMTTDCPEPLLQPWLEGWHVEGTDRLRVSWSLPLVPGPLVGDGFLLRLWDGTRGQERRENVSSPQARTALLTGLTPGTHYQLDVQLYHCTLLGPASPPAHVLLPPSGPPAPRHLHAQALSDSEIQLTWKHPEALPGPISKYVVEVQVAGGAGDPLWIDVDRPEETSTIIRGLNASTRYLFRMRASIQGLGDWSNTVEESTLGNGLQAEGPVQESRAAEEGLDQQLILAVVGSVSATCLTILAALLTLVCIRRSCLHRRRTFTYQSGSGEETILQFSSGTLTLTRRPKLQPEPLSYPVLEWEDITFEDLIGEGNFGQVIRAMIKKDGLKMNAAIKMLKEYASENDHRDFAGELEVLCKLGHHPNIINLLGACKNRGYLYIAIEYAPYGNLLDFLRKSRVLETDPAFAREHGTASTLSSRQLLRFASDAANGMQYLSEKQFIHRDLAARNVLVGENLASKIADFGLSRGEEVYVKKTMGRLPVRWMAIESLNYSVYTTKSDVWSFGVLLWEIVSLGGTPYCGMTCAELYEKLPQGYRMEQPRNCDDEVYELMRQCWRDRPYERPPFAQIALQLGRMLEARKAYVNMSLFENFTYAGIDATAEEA
# Sequence of UniProt Q9H2X6 (whole entry, looked up): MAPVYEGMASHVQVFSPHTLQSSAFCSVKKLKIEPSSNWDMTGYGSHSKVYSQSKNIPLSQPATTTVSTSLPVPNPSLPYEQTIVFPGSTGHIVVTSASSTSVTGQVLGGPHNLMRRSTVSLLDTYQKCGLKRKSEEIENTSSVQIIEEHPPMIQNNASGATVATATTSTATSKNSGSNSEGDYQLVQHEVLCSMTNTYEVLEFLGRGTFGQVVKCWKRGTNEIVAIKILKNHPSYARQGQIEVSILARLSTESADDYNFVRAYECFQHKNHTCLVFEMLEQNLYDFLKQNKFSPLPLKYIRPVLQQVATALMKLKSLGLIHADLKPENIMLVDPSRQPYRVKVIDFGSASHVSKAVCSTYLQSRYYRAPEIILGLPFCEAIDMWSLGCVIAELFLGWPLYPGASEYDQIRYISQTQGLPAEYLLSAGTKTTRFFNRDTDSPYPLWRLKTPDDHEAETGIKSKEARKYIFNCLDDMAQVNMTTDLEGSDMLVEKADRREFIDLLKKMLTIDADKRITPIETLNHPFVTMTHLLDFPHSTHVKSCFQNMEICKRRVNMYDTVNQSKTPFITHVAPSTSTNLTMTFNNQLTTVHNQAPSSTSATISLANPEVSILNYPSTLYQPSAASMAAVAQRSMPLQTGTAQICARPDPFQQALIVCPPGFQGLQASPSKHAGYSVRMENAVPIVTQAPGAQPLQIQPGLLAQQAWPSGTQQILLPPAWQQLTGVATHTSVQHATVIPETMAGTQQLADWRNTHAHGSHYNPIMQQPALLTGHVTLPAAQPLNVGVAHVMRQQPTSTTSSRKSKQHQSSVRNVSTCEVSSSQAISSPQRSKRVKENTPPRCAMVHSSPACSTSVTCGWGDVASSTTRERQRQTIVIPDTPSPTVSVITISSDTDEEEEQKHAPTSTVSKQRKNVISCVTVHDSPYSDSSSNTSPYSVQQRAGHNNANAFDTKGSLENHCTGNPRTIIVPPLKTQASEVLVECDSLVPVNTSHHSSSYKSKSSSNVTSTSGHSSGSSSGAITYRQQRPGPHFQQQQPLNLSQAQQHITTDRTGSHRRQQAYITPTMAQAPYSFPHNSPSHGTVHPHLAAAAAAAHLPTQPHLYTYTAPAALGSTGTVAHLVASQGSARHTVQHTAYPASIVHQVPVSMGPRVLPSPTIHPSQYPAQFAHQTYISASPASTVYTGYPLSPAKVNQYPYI
# Sequence of UniProt P42336 (whole entry, unmodified, looked up): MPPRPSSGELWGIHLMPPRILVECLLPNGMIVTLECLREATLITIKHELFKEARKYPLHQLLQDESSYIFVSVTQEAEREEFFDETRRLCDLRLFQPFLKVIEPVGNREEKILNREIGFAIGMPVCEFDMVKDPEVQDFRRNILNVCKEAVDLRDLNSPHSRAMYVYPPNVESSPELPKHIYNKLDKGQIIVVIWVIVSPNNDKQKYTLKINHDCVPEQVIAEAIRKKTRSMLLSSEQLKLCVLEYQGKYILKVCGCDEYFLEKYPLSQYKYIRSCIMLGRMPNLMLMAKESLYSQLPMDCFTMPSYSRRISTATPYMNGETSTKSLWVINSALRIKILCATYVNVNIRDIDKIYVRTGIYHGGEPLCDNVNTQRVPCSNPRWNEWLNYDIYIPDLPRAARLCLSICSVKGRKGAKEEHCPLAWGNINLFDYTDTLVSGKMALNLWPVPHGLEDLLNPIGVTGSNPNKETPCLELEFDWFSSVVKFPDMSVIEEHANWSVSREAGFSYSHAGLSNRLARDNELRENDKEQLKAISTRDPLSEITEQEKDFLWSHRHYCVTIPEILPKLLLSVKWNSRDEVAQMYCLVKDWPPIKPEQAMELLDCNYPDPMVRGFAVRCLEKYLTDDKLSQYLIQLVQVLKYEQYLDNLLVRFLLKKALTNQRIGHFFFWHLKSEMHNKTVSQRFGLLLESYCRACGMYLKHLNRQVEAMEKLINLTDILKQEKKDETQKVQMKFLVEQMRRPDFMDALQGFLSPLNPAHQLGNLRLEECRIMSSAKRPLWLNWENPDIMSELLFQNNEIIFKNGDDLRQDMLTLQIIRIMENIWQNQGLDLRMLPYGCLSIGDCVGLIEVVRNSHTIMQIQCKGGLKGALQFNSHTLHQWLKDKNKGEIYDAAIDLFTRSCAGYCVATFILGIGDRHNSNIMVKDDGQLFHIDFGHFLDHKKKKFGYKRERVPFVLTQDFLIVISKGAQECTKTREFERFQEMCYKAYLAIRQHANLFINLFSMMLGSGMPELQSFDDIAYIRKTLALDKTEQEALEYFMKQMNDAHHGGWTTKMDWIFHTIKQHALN
# Sequence of UniProt Q16659 (whole entry, looked up): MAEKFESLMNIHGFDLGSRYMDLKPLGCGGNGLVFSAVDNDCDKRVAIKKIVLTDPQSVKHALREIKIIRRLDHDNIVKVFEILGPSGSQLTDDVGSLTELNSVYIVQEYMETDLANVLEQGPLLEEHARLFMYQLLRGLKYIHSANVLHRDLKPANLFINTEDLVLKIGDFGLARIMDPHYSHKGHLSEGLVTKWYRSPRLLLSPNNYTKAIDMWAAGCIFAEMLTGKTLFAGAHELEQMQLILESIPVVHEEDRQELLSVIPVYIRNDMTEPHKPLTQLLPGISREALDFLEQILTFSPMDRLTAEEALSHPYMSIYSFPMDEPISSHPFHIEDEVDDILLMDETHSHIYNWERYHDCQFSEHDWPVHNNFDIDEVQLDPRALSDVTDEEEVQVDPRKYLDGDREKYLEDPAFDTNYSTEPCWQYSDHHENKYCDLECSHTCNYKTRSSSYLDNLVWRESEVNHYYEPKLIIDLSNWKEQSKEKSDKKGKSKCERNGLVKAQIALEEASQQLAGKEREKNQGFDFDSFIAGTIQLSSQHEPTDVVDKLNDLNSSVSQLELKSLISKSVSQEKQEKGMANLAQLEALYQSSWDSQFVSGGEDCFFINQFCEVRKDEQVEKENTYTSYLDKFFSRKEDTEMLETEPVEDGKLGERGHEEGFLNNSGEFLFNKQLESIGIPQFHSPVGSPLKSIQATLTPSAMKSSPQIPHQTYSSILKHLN
# Sequence of UniProt Q9UPZ9 (whole entry, looked up): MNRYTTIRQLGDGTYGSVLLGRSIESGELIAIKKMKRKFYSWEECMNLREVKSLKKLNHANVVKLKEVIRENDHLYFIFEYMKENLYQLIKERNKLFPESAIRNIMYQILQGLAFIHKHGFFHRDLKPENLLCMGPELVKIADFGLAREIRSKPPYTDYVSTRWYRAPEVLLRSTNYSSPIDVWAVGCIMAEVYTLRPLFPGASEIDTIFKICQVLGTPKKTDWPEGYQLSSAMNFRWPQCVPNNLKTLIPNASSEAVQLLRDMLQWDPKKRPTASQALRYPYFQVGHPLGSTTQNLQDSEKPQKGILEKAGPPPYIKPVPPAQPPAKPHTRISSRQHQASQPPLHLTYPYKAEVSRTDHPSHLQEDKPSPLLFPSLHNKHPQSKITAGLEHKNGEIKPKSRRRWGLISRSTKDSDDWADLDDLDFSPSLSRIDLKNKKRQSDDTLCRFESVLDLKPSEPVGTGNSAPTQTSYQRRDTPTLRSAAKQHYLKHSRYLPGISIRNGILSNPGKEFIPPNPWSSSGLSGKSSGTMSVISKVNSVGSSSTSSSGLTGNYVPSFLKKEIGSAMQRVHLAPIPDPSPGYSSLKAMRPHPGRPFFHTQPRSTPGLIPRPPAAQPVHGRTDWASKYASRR

# Block 1
# Method: PRP chromatography estimate
# Medium: 1,9-decadiene/PBS
# pH: 7.4
SMILES,logD
CC(C)C[C@@H]1NC(=O)[C@H](CC(C)C)NC(=O)[C@@H](CC(C)C)NC(=O)[C@@H](C)NC(=O)[C@H](C(C)C)NC(=O)[C@H](C)NC(=O)[C@H](C)NC1=O,-2.68
CCOC(=O)[C@@H]1CSCC(=O)N[C@H](CC)C(=O)N(C)[C@@H](C)C(=O)N[C@@H](CC(C)C)C(=O)N2CCC[C@@H]2C(=O)N(CC)CC(=O)N[C@H](CC(C)C)C(=O)N(C)[C@H](C)C(=O)N[C@@H](CC(C)C)C(=O)N1C,-0.373
CC(C)C[C@@H]1NC(=O)[C@H](CC(C)C)NC(=O)[C@@H](C(C)C)NC(=O)[C@H](CC(C)C)NC(=O)[C@@H](Cc2cscn2)NC(=O)[C@H](Cc2cscn2)NC(=O)[C@H](CCC(=O)N2CCCC2)NC1=O,-1.39

# Block 2
# Species: mouse
# Medium: microsomes or S9
# Tested at: 2 µM
# Time: 0.5 h
SMILES,remaining compound
CN1CCCCCCN(S(=O)(=O)c2cccc(F)c2)CCC1=O,0.0605%
O=c1cc(CSC2CCCCC2)nc2sc3c(n12)CCCC3,0.117%
Cc1ccc(S(=O)(=O)n2cc(Br)c3c(N4CCC(N5CCOCC5)CC4)ncnc32)cc1,0.54%
Cc1nc(C)c2c(C)c(CNCC(C)(C)N3CCOCC3)sc2n1,0.39%

# Block 3
# Structure (SMILES): Cc1nc(Cc2cccc(C(F)(F)F)c2)sc1-c1ccc(C(N)=O)nc1
# Method: competition with immobilised ligand
# Tested at: 1 µM
target,read-out,remaining binding
"CDKL3 (Homo sapiens, UniProt Q8IVW4)",binding,100%
"Tyrosine-protein kinase ABL1, non-phosphorylated (ABL1, Homo sapiens, UniProt P00519, T315I)",cell-free assay,100%
"MAPK6 (Homo sapiens, UniProt Q16659)",cell-free assay,100%
"PIK3CD (Homo sapiens, UniProt O00329)",cell-free assay,100%
"Tyrosine-protein kinase JAK1, JH2 (JAK1, Homo sapiens, UniProt P23458)",cell-free assay,92%
"CILK1 (Homo sapiens, UniProt Q9UPZ9)",binding,100%
"TNIK (Homo sapiens, UniProt Q9UKE5)",cell-free assay,100%
"IGF1R (Homo sapiens, UniProt P08069)",cell-free assay,100%
"HIPK2 (Homo sapiens, UniProt Q9H2X6)",cell-free assay,100%
"LRRK2 (Homo sapiens, UniProt Q5S007, G2019S)",cell-free assay,82%
"ERBB3 (Homo sapiens, UniProt P21860)",cell-free assay,100%
"MERTK (Homo sapiens, UniProt Q12866)",cell-free assay,98%
"STK3 (Homo sapiens, UniProt Q13188)",cell-free assay,97%
"MAP2K2 (Homo sapiens, UniProt P36507)",cell-free assay,98%
"CLK4 (Homo sapiens, UniProt Q9HAZ1)",cell-free assay,83%
"TAOK1 (Homo sapiens, UniProt Q7L7X3)",cell-free assay,81%
"FES (Homo sapiens, UniProt P07332)",cell-free assay,99%
"PIK3CA (Homo sapiens, UniProt P42336, H1047L)",cell-free assay,72%
"DDR1 (Homo sapiens, UniProt Q08345)",cell-free assay,100%
"DCLK3 (Homo sapiens, UniProt Q9C098)",cell-free assay,100%
"PI4KB (Homo sapiens, UniProt Q9UBF8)",cell-free assay,91%
"PAK2 (Homo sapiens, UniProt Q13177)",cell-free assay,60%
"TIE1 (Homo sapiens, UniProt P35590)",binding,28%
"PIP5K1A (Homo sapiens, UniProt Q99755)",cell-free assay,100%

# Block 4
# Target: Histone acetyltransferase KAT6A, both winged helices, GST fusion (KAT6A, Homo sapiens, UniProt Q92794, residues 1-181)
# Method: protein binding microarray
# Molecule type: double-stranded DNA, one strand shown
# Medium: in vitro
# Tested at: not given
# Notes: 8-mer, flanks averaged, mean of 2 arrays, mostly near background
# Reference: not given
# Direction: higher = stronger binding
# Construct (chain): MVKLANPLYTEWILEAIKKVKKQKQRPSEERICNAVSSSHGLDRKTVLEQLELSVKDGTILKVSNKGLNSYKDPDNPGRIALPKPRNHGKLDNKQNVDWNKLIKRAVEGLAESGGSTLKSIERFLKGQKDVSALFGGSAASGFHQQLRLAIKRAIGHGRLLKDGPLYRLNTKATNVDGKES
Oligonucleotide,E-score
TAGTAAAA,0.019
GATGGAGA,-0.102
GCTTACCA,0.0182
GGGCATGA,-0.0698
CAGCTTAG,-0.0404
ATACCTTG,-0.038
CGGACGAG,0.0697
ATAGCTTC,-0.109

# Block 5
# Organism: Sarcocystis neurona
# Read-out: parasite growth
# Tested at: 10 µM
SMILES,inhibition
OCc1cc(C(O)CNCCCCCCOCCCCc2ccccc2)ccc1O (centres unmarked),27%
Clc1ccc(COC(Cn2ccnc2)c2ccc(Cl)cc2Cl)c(Cl)c1 (centres unmarked),54.2%
C#C[C@]1(O)CC[C@H]2[C@@H]3CCc4cc(O)ccc4[C@H]3CC[C@@]21C,-46.8%
COc1cc2c(cc1OC)C(=O)C(CC1CCN(Cc3ccccc3)CC1)C2 (centres unmarked),-31.3%

# Block 6
# Cell line: mouse MPNST tumor cells
# Method: high-content immunofluorescence imaging
# Refers to: nuclear SOX9
# Tested at: 10 µM
# Time: 12 h
# Notes: mean of 2 replicates
# Reference: DMSO control
# Direction: higher = more nuclear SOX9
SMILES,nuclear SOX9 intensity
O=C(O)Cc1sc(-c2ccccc2)nc1-c1ccc(Cl)cc1,87.5 % of DMSO
CC[C@H]1OC(=O)[C@H](C)[C@@H](O[C@H]2C[C@@](C)(OC)[C@@H](O)[C@H](C)O2)[C@H](C)[C@@H](O[C@@H]2O[C@H](C)C[C@H](N(C)C)[C@H]2O)[C@](C)(OC)C[C@@H](C)C(=O)[C@H](C)[C@@H](O)[C@]1(C)O,97.8 % of DMSO
COC(=O)c1ccccc1NC(=O)c1ccc(F)cc1,106 % of DMSO
N#Cc1c(NC(=O)c2cccc3ccccc23)sc2c1CCCC2,221 % of DMSO

# Single results of other studies
SMILES,tested on,test,system,conditions,scale,endpoint,result
O=c1cc(-c2ccc(O)cc2)oc2cc(O)cc(O)c12,HaCaT,,,"100 µM, 60 h",,viability,19.6%
CN1CC[C@H](c2c(O)cc(O)c3c(=O)cc(-c4ccccc4Cl)oc23)[C@H](O)C1,HuT78,"qPCR, refers to: RARA",,"concentration not given, 12 h, unit not given",reference: untreated control,mRNA level,0.687 and 0.88 and 0.901
CC(C)n1cnc(-c2ccc(F)cc2)c1-c1ncc(C(=O)Nc2ccc(N3CCN(C)CC3)cc2)[nH]1,,,"human, idiopathic pulmonary fibrosis","60 mg once daily, trial, treatment-emergent",,grade 5 ventricular extrasystoles,0%
